Assay results collected from several papers.
Lines come from different studies, so protocols differ. ± marks the error that the study gave. Bridges are numbered along the chain shown (N, C = ends). Where no end group is shown, it is not given here.

Substance	test	system	conditions	how to read	quantity	value
insulin aspart	euglycaemic glucose clamp	elderly type 1 diabetes	subcutaneous, 0.2 U/kg		GIRmax	4.9 mg/kg/min
O=c1cc(-c2ccccc2)oc2cc(O)cc(O)c12	cell proliferation, CellTiter-Glo	cord blood CD34+ cells, human	24 h, lowest dose with significant inhibition	baseline: vehicle	lowest effective concentration	250 to 500 µM
COc1cc(-c2cn(-c3ccc(Cl)cc3)nn2)[nH]c1/C=N/C1CCCCC1	chloride/lactate exchange, ISE chloride efflux	POPC vesicles 0.5 mM	300 s, pH 7.2, added: sodium lactate 40 mM		EC50	0.034 ± 0.004 µM
Cc1ccc(CN2CCN(C(=O)/C=C/c3ccc(O)cc3O)CC2)cc1		zebrafish AB wild type, head melanin	60 µM, 45 h, from 6 hpf		pigmentation inhibition	16.3 ± 2.13%
COc1cccc2c1C(=O)c1c(O)c3c(c(O)c1C2=O)C[C@@](O)(C(=O)CO)C[C@@H]3O[C@H]1C[C@H](N)[C@H](O)[C@H](C)O1		mouse, T47D xenograft	5 mg/kg once weekly for 2 weeks, day 10 after inoculation, started after 2 weeks growth		tumour volume	57 ± 18.7 mm3
CCOc1ccc(C[C@@H](N)C(=O)N[C@@H](Cc2ccccc2)C(=O)NC2CCN(C(=N)N)CC2)cc1.O=C(O)C(F)(F)F.O=C(O)C(F)(F)F	SD-OCT	mouse, retina	subcutaneous osmotic pump, 1.60 mg/kg/day, 24 h, added: VEGF 100 ng/eye intravitreal	baseline: baseline	increase in retinal thickness	16.5 ± 3.8 µm
insulin lispro	euglycemic clamp	obese type 2 diabetes patients	subcutaneous, 10 units		total glucose infused	92 mg/kg
O=C(NCc1ccc(F)cc1)C(=O)[C@H](Cc1ccccc1)NC(=O)[C@H]1CCC(=O)N1Cc1ccccc1	passive avoidance	mouse, scopolamine-induced amnesia	ip, 10 mg/kg, added: scopolamine 1 mg/kg ip		step-through latency	193 ± 42.8 s
CCC(C)(C)C(=O)O[C@H]1C[C@@H](C)C=C2C=C[C@H](C)[C@H](CC[C@@H]3C[C@@H](O)CC(=O)O3)[C@H]21		dogs with hyperlipidaemia	1 mg/kg/day, one month		plasma cholesterol	269 ± 115 mg/dL
Ac-CSNLSTCXLGRLSQDLHRLQTYPKTDVGANAP-NH2 (N-acetyl, C-amide)		peptide, ZDF rats	1.5 nmol/kg daily, 8 weeks	baseline: vehicle	plasma insulin	increased
C#Cc1cc(Oc2cnc(N)nc2N)c(C(C)C)cc1OC	immunohistochemistry	Sprague-Dawley rat, L6 spinal cord	intrathecal, 300 nmol, added: 1% acetic acid in bladder	baseline: vehicle	reduction of pERK-positive cells	46.4 ± 12%
C[C@H](NC(=O)CCc1nc2cccnc2n1Cc1ccc(OC(F)(F)F)cc1)c1ccc(Cl)cc1		C57BL/6 mouse, bleomycin fibrosis	oral, 10 mg/kg twice daily, 21 days, prophylactic		lung collagen content	decreased
O=C1O[C@H]([C@@H](O)CO)C(O)=C1O	ABTS scavenging, absorbance				IC50	0.72 µM
COc1ccc(Nc2c(-c3ccc(S(C)(=O)=O)cc3)nc3ccccn23)cc1	formalin test	male Wistar rat	intraperitoneal, 40 mg/kg	baseline: control group	pain score AUC	decreased
Oc1cccc2ccccc12	fish short-term reproduction	Oryzias latipes, female, liver	80.0 µg/L, 21 d		vitellogenin level	3220 ± 623 ng/mg liver
Polymyxin B		human whole blood	250 ng/mL, 4 h, 37 °C, added: E. coli LPS 0.5 ng/mL	baseline: LPS without compound	IL-6 release	19 ± 13.8%
CC(C)C[C@H](NC(=O)[C@H](CO)NC(=O)[C@H](CCCNC(=N)N)NC(=O)[C@H](CC(=O)O)NC(=O)[C@H](CCC(=O)O)NC(=O)[C@H](C)NC(=O)[C@@H]1CCCN1C(=O)[C@H](C)NC(=O)[C@H](CCC(=O)O)NC(=O)[C@@H]1CCCN1C(=O)[C@@H]1CCCN1)C(N)=O	HPLC-EC	F344 rat, normal, substantia nigra	intranasal, 100 µg, 5 days/week for 3 weeks		DOPAC level	103 ± 20 ng/g
COCCSc1nnc(C23CC4CC(CC(C4)C2)C3)n1-c1ccccc1	paw oedema	rat	intraperitoneal, 40 mg/kg		inhibition in vivo	2.46%
Cc1cccc2c1NC(=O)[C@@H](NC(=O)[C@H](CCC(F)(F)F)[C@H](CCC(F)(F)F)C(N)=O)N=C2c1cccc(F)c1	RT-qPCR	human, peripheral blood	1.2 mg and 1.5 mg once daily, 2 weeks	baseline: baseline	Hes1 mRNA level decrease	> 50%
C[C@H]1[C@H](OC(=O)CCC(=O)O)O[C@@H]2O[C@@]3(C)CC[C@H]4[C@H](C)CC[C@@H]1[C@@]24OO3	bioluminescence	mouse, Hep3B-Luc orthotopic xenograft	50 mg/kg daily, 24 days	baseline: vehicle	tumour growth inhibition	21.5%

Substance	test	system	conditions	how to read	quantity	value
CC(C)C[C@@H]1NC(=O)[C@H](CCCNC(=N)N)NC(=O)[C@H](Cc2c[nH]c3ccccc23)NC(=O)[C@H](CCCNC(=N)N)NC(=O)CNC(=O)CNC(=O)[C@H](CCCCN)NC(=O)CNC(=O)[C@H](Cc2c[nH]c3ccccc23)NC(=O)[C@H](CC(=O)O)NC(=O)[C@@H](NC(=O)[C@H](CCC(=O)O)NC(=O)[C@H](C)NC(=O)CCCC[C@@H]2SC[C@@H]3NC(=O)N[C@@H]32)CSSC[C@@H](C(=O)NCC(=O)N2CCC[C@H]2C(=O)O)NC(=O)[C@H](C)NC(=O)[C@H](CCC(=O)O)NC(=O)[C@H]([C@@H](C)O)NC(=O)[C@H](CCCCN)NC(=O)CNC(=O)[C@H](CO)NC(=O)[C@H](C)NC(=O)CNC(=O)[C@@H]2CCCN2C(=O)[C@H](Cc2c[nH]c3ccccc23)NC1=O	thioflavin S, Congo red	APPswe/PSEN1(A246E) mouse, young, brain hippocampus	s.c., once monthly, 5 to 12 months, without adjuvant	baseline: mock-immunized	amyloid plaque burden	50 ± 7%
Ac-DMQD-aldehyde (N-acetyl, C-aldehyde)	active-site labeling, inhibitor, YV(bio)KD-aomk probe labeling, item: caspase-3 p20	Jurkat cell extract	added: caspase-8		Kd	1 to 2 µM
C[C@H]1C[C@H]2CSC(N)=N[C@@]2(c2nc(NC(=O)c3ccc(OC(F)F)cn3)cs2)CO1	item: CSF total Aβ	healthy adults	oral, 50 mg once daily, 14 days	baseline: placebo-adjusted baseline	percent change from baseline	-60.1%
insulin glulisine		obese type 2 diabetes patients	subcutaneous, 0.2 U/kg, within 2 min before 692 kcal meal		plasma glucose AUC(0-1 h)	149 mg·h/dL
CCCCCCCCCCCCCCCC(=O)NCCCC[C@H](NC(=O)[C@H](CCC(=O)O)NC(=O)[C@H](CCC(=O)O)NC(=O)[C@H](Cc1ccc(O)cc1)NC(=O)[C@H](CCC(=O)O)NC(=O)CCCCCNC(=S)Nc1ccc2c(c1)C(=O)OC21c2ccc(O)cc2Oc2cc(O)ccc21)C(=O)N[C@@H](Cc1ccc(O)cc1)C(=O)N[C@@H](CCC(=O)O)C(=O)NCC(=O)NCC(=O)NCC(=O)NCC(=O)N[C@@H](CO)C(=O)NCC(=O)NCC(=O)NCC(=O)NCC(=O)N[C@@H](CO)C(=O)N[C@@H](Cc1ccccc1)C(=O)N[C@@H](CC(N)=O)C(=O)N1CCC[C@H]1C(=O)N[C@@H](CCCNC(=N)N)C(=O)N[C@@H](Cc1c[nH]cn1)C(=O)NC(C)(C)C(=O)N[C@@H](CCC(=O)O)C(=O)NCC(=O)N[C@H](C(=O)N[C@@H](Cc1ccccc1)C(=O)N[C@H](C(=O)N[C@@H](CO)C(=O)N[C@@H](CC(=O)O)C(=O)N[C@H](C(=O)N[C@@H](CO)C(=O)N[C@@H](CO)C(=O)N[C@@H](Cc1ccc(O)cc1)C(=O)N[C@@H](CC(C)C)C(=O)N[C@@H](CCC(=O)O)C(=O)NCC(=O)N[C@@H](CCC(N)=O)C(=O)N[C@@H](C)C(=O)N[C@@H](C)C(=O)N[C@@H](CCCCN)C(=O)N[C@@H](CCC(=O)O)C(=O)N[C@@H](Cc1ccccc1)C(=O)N[C@H](C(=O)N[C@@H](C)C(=O)N[C@@H](Cc1c[nH]c2ccccc12)C(=O)N[C@@H](CC(C)C)C(=O)N[C@H](C(=O)N[C@@H](CCCCN)C(=O)NCC(=O)N[C@@H](CCCNC(=N)N)C(=O)NCC(=O)O)C(C)C)[C@@H](C)CC)C(C)C)[C@@H](C)O)[C@@H](C)O		db/db mouse	subcutaneous, 90 nmol/kg twice weekly, 8 weeks		serum AST	126 ± 8.5 IU/L
C[C@]1(c2nc3c(C(N)=O)cccc3[nH]2)CCCN1	item: poly(ADP-ribose)	PBMC, cancer patients	dose not given, 504 h, day 21 cycle 1, added: cyclophosphamide	baseline: baseline	PAR level decrease	≥ 50%
CC1(C)C2CCC1(C)C(OC(=O)C(O)Cc1ccc(O)c(O)c1)C2 (stereo not drawn)		C57BL/6 mouse, cerebral ischemia-reperfusion	iv, 12 mg/kg	baseline: untreated model	brain MDA level	decreased
Cc1ccc(NC(=O)c2ccc(CN3CCN(C)CC3)cc2)cc1Nc1nccc(-c2cncc(-c3oncc3C)c2)n1		mild-to-moderate Parkinson's disease patients	oral, 100 mg once daily, pre-dose baseline, on anti-Parkinson medication	direction not given	MDS-UPDRS part I score	5.4 ± 3.5
C[C@@H]1CC(=O)NN=C1c1ccc(N)cc1		guinea pig papillary muscle	up to 30 µM, added: forskolin 0.1 µM	baseline: baseline	increase in contraction force	265 ± 62 mg
Cn1c(-c2ccc(Br)s2)nc2cc(-c3nnc(-c4cc(-c5cc(F)cc(F)c5)nc5ccccc45)o3)ccc21		human platelet-poor plasma	concentration not given		plasma recalcification time	460 s
Cn1cncc1-c1c(F)cncc1NC(=O)c1c(N)nn2cc(F)cnc12	flow cytometry, item: γ-H2AX	patients, PBMC	oral, 130 mg once daily or higher, 3 h after first dose, added: 4-NQO ex vivo		inhibition	> 80%
CC1(C)CCC(c2ccc(Cl)cc2)=C(CN2CCN(c3ccc(C(=O)NS(=O)(=O)c4ccc(N[C@H](CCN5CCOCC5)CSc5ccccc5)c(S(=O)(=O)C(F)(F)F)c4)cc3)CC2)C1	cell kill, PI exclusion flow cytometry	normal CD3+ T lymphocytes, dog, peripheral blood	24 h		EC50	0.22 ± 0.19 µM
C=CCN(/C=C1/C(=O)O[C@H](COC)[C@@]2(C)C1=C(O)C(=O)C1=C2[C@H](OC(C)=O)C[C@]2(C)C(=O)CC[C@@H]12)CC=C		patients, incurable solid tumours	dose not given, single agent after docetaxel discontinued		additional cycles with disease control	≤ 10 cycles
insulin degludec	euglycaemic clamp	healthy human subjects	subcutaneous, thigh, 0.4 U/kg, 0 to 24 h		AUC(GIR) mean estimate	2570 mg/kg
CILDLPKFC (disulfide 1-9 (inferred)) (disulfide)	flow cytometry	human, follicular lymphoma biopsy cells	concentration not given		peptide-specific B cells	> 60%
cilengitide		Sprague-Dawley rats, TNBS colitis, colonic smooth muscle cells	ip, 18 mg/kg/day, 42 d, unit not given	baseline: ethanol-treated rats	collagen IαI mRNA level	0.35 ± 0.04
CC[C@H](C)[C@H](NC(=O)[C@H](Cc1ccc(O)cc1)NC(=O)[C@@H]1CSSC[C@H](NC(=O)[C@@H](CCC(=O)O)NC(=O)[C@H](Cc2ccc(O)cc2)NC(=O)[C@H](CCNC(=O)CCC(C(=O)O)N2CCN(CC(=O)O)CCN(CC(=O)O)CCN(CC(=O)O)CC2)NC(=O)CCC(C(=O)O)N2CCN(CC(=O)O)CCN(CC(=O)O)CCN(CC(=O)O)CC2)C(=O)N2C[C@H](O)C[C@H]2C(=O)N[C@@H](Cc2ccc(O)c(Cl)c2)C(=O)NCC(=O)N[C@@H](CC(C)C)C(=O)N1)C(=O)N[C@@H](CCC(N)=O)C(=O)NCc1ccc(CNC(=O)[C@H](CCNC(=O)CCC(C(=O)O)N2CCN(CC(=O)O)CCN(CC(=O)O)CCN(CC(=O)O)CC2)NC(=O)CCC(C(=O)O)N2CCN(CC(=O)O)CCN(CC(=O)O)CCN(CC(=O)O)CC2)cc1 (stereo partly drawn)	T1-weighted MRI, 9.4 T	nude mice, BT-20 breast cancer xenograft, tumour periphery	iv, 20 µmol/kg, 85 min	baseline: baseline	contrast-to-noise ratio increase	7.2 ± 2.9
Cn1c(=O)n([C@@H]2O[C@H](COP(=O)(O)CP(=O)(O)O)[C@@H](O)[C@H]2O)cc/c1=N\OCc1ccc(Cl)cc1	dot blot, item: soluble CD73	culture medium	range over 1 to 100 µM, 15 min, rat cells		CD73 release into medium	increased
CC[C@@H](C(=O)Nc1ccc(C(N)=O)c(F)c1)n1cc(OC)c(-c2cc(Cl)ccc2-n2cc(C(F)(F)F)nn2)cc1=O		New Zealand White rabbit, FeCl2 jugular injury	intravenous, 6 mg/kg		thrombus weight	0.6 mg

A few entries again:
Substance	test	system	conditions	how to read	quantity	value
C#Cc1cc(Oc2cnc(N)nc2N)c(C(C)C)cc1OC	immunohistochemistry	Sprague-Dawley rat, L6 spinal cord	intrathecal, 300 nmol, added: 1% acetic acid in bladder	baseline: vehicle	reduction of pERK-positive cells	46.4 ± 12%
C[C@H](NC(=O)CCc1nc2cccnc2n1Cc1ccc(OC(F)(F)F)cc1)c1ccc(Cl)cc1		C57BL/6 mouse, bleomycin fibrosis	oral, 10 mg/kg twice daily, 21 days, prophylactic		lung collagen content	decreased
O=C1O[C@H]([C@@H](O)CO)C(O)=C1O	ABTS scavenging, absorbance				IC50	0.72 µM
COc1ccc(Nc2c(-c3ccc(S(C)(=O)=O)cc3)nc3ccccn23)cc1	formalin test	male Wistar rat	intraperitoneal, 40 mg/kg	baseline: control group	pain score AUC	decreased
